Measured values of several laboratories.
Compare with care: the assays were run in different laboratories. ± gives the spread as reported.
ALB: Albumin (ALB, Bos taurus, UniProt P02769)
T1: dsDNA hairpin, hairpin; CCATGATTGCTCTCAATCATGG

For `C=CCC(=N)NCCC[C@H](N)C(=O)O`, the Hill slope was 1 ± 0.2 (Nitric oxide synthase 3 (Rattus norvegicus, UniProt Q62600); ACh-evoked cGMP accumulation; rat aortic rings).
With `O=C1CCC(N2Cc3c(NCc4ccccc4)cccc3C2=O)C(=O)N1` (stereo not shown) the degradation was 60% (Zinc finger protein Aiolos (Homo sapiens, UniProt Q9UKT9); degrader, western blot; OPM-2; 10 µM, 24 h).
`CCNc1nc2c(c(=O)[nH]1)[n+](C)cn2[C@@H]1O[C@H](COP(=O)(O)OP(=O)(O)OP(=O)(O)OC[C@H]2O[C@@H](n3cnc4c(=O)[nH]c(N)nc43)[C@H](O)[C@@H]2O)[C@@H](O)[C@H]1O` — result for “initial hydrolysis rate”: 0.92 ± 0.12 µM/min (m7GpppX diphosphatase (DCPS, Homo sapiens, UniProt Q96C86); decapping, substrate, HPLC; concentration not given).
With `CCC(C)C(N)C(=O)OC(C)OC(=O)C1=CC(N=C(N)N)C(NC(C)=O)C(C(O)C(O)CO)O1` (mixture of isomers) the IC50 ratio was ~3 fold (Solute carrier family 15 member 1 (SLC15A1, Homo sapiens, UniProt P46059); inhibitor; Caco-2; added: [3H]Gly-Sar; relative to: Zan-L-Val).
`COc1ccc(C(SCC(N)C(=O)O)(c2ccccc2)c2ccccc2)cc1` (stereo not shown) has a binding stoichiometry of 0.7 ± 0.003 (Kinesin-like protein KIF11, motor domain (KIF11, Homo sapiens, UniProt P52732); ITC; concentration not given, 25 °C).
The affinity ratio of `Cc1ccccc1-c1cc(N2CCN(Cc3ccccc3)CC2)ccc1N(C)C(=O)C(C)(C)c1cc(C(F)(F)F)cc(C(F)(F)F)c1` is reported as ~20 fold (Substance-P receptor (TACR1, Homo sapiens, UniProt P25103); relative to: pH 6.0 over pH 7.4).
Under “Gibbs free energy change”, `CCCCCCCCCCCCCC(=O)Nc1ccccc1SSc1ccccc1NC(=O)CCCCCCCCCCCCC` is recorded as -7.67 kcal/mol (ALB; binding, fluorescence quenching; 298 K).
`CC(C)[C@H](NC(=O)[C@@H]1CCC(=O)NCCC(=O)NCCCC[C@H](NC(=O)[C@H](CCCCN)NC(=O)[C@@H](NC(=O)[C@H](Cc2c[nH]c3ccccc23)NC(=O)[C@@H]2CCCN2C(=O)[C@@H]2CCCN2C(=O)[C@H](Cc2ccccc2)NC(=O)[C@H](CO)NC(=O)CNC(=O)[C@@H](N)CSSC[C@H](NC(=O)[C@H](CCCNC(=N)N)NC(=O)[C@H](CCCNC(=N)N)NC(=O)[C@H](CCCNC(=N)N)NC(=O)[C@H](CCCNC(=N)N)NC(=O)[C@H](CCCNC(=N)N)NC(=O)[C@@H](N)CCCNC(=N)N)C(=O)O)C(C)C)C(=O)N[C@@H]([C@@H](C)O)C(=O)N1)C(=O)O` has a kon of 1.78e+06 M⁻¹ s⁻¹ (Disks large homolog 4, PDZ3 domain (Homo sapiens, UniProt P78352); binding, surface plasmon resonance; pH 7.5, 25 °C).
`COc1cc(C(=O)NC2CCC(N3CCN(CC4CCC5(CCCC5)C4)CC3)CC2)c(F)cc1Nc1ncc2c(n1)N(C1CCCC1(F)F)CC(F)(F)C(=O)N2C` (stereo not shown) has an inhibition of 0.7% (Tyrosine-protein kinase ITK/TSK (ITK, Homo sapiens, UniProt Q08881); cell-free assay, TR-FRET; 10 µM).
`CNc1ccccc1C(=O)O[C@H]1C[C@H](n2cnc3c(N)ncnc32)O[C@@H]1COP(=O)(O)OP(=O)(O)O`: “pocket forward rate constant” 0.74 ± 0.43 s⁻¹ (Unconventional myosin-Va (Gallus gallus, UniProt Q02440, D297C/G292C/I296C/S293C/V295G); stopped-flow FRET; 25 °C, added: MgCl2 10 mM).
With `NS(=O)(=O)c1ccc(N2N=C(C(F)(F)F)CC2c2ccc(F)cc2F)cc1` (stereo not shown) the IC20 was 4 µM (Cyclooxygenase-2 (Canis lupus familiaris, UniProt Q8SPQ9); PGE2 formation, inhibitor; dog whole blood; 24 h, added: LPS).
For `CC(C)(C)OC(=O)N1CCN(CC(OCc2ccc3ccccc3c2)c2ccc(Cl)cc2Cl)CC1` (stereo not shown), “activity vs control” read 154% (Serine/threonine-protein kinase ULK1 (ULK1, Homo sapiens, UniProt O75385); enzyme activity, inhibitor, ADP detection; 0.1 µM).
For `NS(=O)(=O)c1c(F)c(F)c(SCCO)c(NC(c2ccccc2)C(O)c2ccccc2)c1F` (stereo not shown), the selectivity ratio was 0.3 (Carbonic anhydrase 12 (CA12, Homo sapiens, UniProt O43570); thermal shift; relative to: Kd CA XII over Kd CA II).
For `CCC1(CC)C(=O)N(c2cccc(CN3CCN(c4cc(C)nc5ccc(Br)cc45)CC3)c2)C1=O`, the SILAC ratio was > 3 (Phosphatidylserine lipase ABHD16A (Homo sapiens, UniProt O95870); probe labelling, inhibitor, competitive ABPP mass spectrometry; U-937 cell lysate; 10 µM, added: FP-biotin 10 µM; relative to: DMSO over compound).
With `CCc1nc2cc3ccccc3cc2cc1C(=O)N1CCC[C@H]1C(=O)N[C@@H](CCC/C=C/CCC[C@H](NC(=O)[C@@H]1CCCN1C(=O)c1cc2cc3ccccc3cc2nc1CC)C(=O)N[C@@H](CCCCN)C(=O)NCCCN)C(=O)N[C@@H](CCCCN)C(=O)NCCCN` the residence time was 806 s ((CUG)4 RNA; SPR).
`N=C(N)NCCC[C@H](NC(=O)[C@H](CC(=O)O)NC(=O)[C@@H]1CSCCCC(=O)NCC(=O)N[C@@H](Cc2c[nH]cn2)C(=O)N[C@H](Cc2ccccc2)C(=O)N[C@@H](CCCNC(=N)N)C(=O)N[C@@H](Cc2c[nH]c3ccccc23)C(=O)N1)C(=O)N[C@@H](Cc1ccccc1)C(=O)NCC(N)=O` — result for functional activity: “inactive” (Melanocortin receptor 4 (MC4R, Homo sapiens, UniProt P32245); cAMP accumulation; HEK293 expressing MC4R; concentration not given).
`Cc1cccnc1C(=O)Nc1ccc(N2C(=O)c3cccc(Cl)c3C2=O)c(Cl)c1` has an Emax of 126% (Metabotropic glutamate receptor 1 (GRM1, Homo sapiens, UniProt Q13255); calcium signal, positive allosteric modulator; T-REx-293).
Under “distribution volume ratio”, `[11CH3]Nc1ccc(-c2nc3ccc(O)cc3o2)cn1` is recorded as 1.63 ± 0.14 (Amyloid-beta precursor protein (APP, Homo sapiens, UniProt P05067); binding, PET, reference Logan; Alzheimer's disease patients, lateral temporal cortex; relative to: cerebellum).
`N=C(N)c1ccc(-c2ccc(-c3ccc(-c4ccc(C(=N)N)cc4)o3)o2)cc1` — result for “melting temperature shift”: 2.1 °C (T1, dsDNA hairpin, hairpin; UV melting; 6 µM, pH 6.25, Na+ 100 mM; relative to: target alone, higher = more stabilisation).
`COC(=O)c1cc(O)c2ccccc2c1O` — result for MBP phosphorylation: “decreased” (Serine/threonine-protein kinase PAK 1 (PAK1, Homo sapiens, UniProt Q13153, T423E); inhibitor; 40 µM, 0.5 h).
The Emax of `O=C(NC[C@@H](Cc1ccc(F)cc1)N1CCC(O)(C(F)(F)F)CC1)C1(c2ccc(Cl)cc2)CCCC1` is reported as 0.38 ± 0.06 (Transient receptor potential cation channel subfamily A member 1 (Trpa1, Rattus norvegicus, UniProt Q6RI86, G878V/M949I); calcium influx, agonist; G878V/M949I mutant, unit not given; relative to: AITC).
With `CCCCOc1ccc(C(=O)OCCN2CC=CCC2)cc1` the dissociation half-time was 0.4 ± 0.1 h (Muscarinic acetylcholine receptor M4 (CHRM4, Homo sapiens, UniProt P08173); recovery of [3H]NMS binding after washing; membranes; 100 µM).
`CO[C@@H]1O[C@H](CO)[C@@H](O[C@H]2O[C@H](CO)[C@@H](OP(=O)(O)O)[C@H](OP(=O)(O)O)[C@H]2O)[C@H]1OP(=O)(O)O` gave a Hill coefficient of 0.9 ± 0.2 (Inositol 1,4,5-trisphosphate-gated calcium channel ITPR1, N-terminal region (Itpr1, Rattus norvegicus, UniProt P29994, del318-332); [3H]IP3 competition binding; N-terminal fragment).
`COC(=O)c1cnc(-c2cnccn2)cc1C(=O)OC.COC(=O)c1cnc(-c2cnccn2)cc1C(=O)OC.F[P-](F)(F)(F)(F)F.[Ag+]` has a fluorescence quenching of 79.4% (ALB; fluorescence emission; emission 365.0 nm).
`O=C(O)CCC(NC(=O)NC(CCCCNC(=O)C(Cc1ccc2ccccc2c1)NC(=O)C1CCC(CNC(=S)Nc2ccc(CC(CN(CC(=O)O)C3CCCCC3N(CC(=O)O)CC(=O)O)N(CC(=O)O)CC(=O)O)cc2)CC1)C(=O)O)C(=O)O` (stereo not shown) gave an internalized fraction of 65.4 ± 5.7% (Glutamate carboxypeptidase 2 (FOLH1, Homo sapiens, UniProt Q04609); LNCaP; 30 nM, 45 min, 37 °C, 177Lu-labelled; relative to: total cell-bound).
For `CC[C@H](C)[C@H](NC(=O)[C@H](CC(=O)O)NC(C)=O)C(=O)N[C@H](C(=O)N[C@H](C(=O)N[C@@H](CCCNC(=N)N)C(=O)N[C@@H](Cc1ccc(O)cc1)C(=O)N[C@@H](CC(N)=O)C(=O)NCC(=O)N[C@@H](CCCCN)C(=O)N[C@H](C(=O)N[C@@H](Cc1c[nH]c2ccccc12)C(=O)N[C@@H](Cc1c[nH]c2ccccc12)C(=O)N[C@@H](CCCNC(=N)N)C(=O)O)C(C)C)[C@@H](C)O)[C@@H](C)O`, “Ka, site 1” read 23000 M⁻¹ (Insulin (INS, Bos taurus, UniProt P01317); isothermal titration calorimetry; pH 2.6, 25 °C).
The kon of `O=S(=O)(Nc1cscn1)c1c(F)cc(NCc2c(F)ccc(F)c2CN2CCC2)cc1F` is reported as 132000 M⁻¹ s⁻¹ (Sodium channel protein type 8 subunit alpha (SCN8A, Homo sapiens, UniProt Q9UQD0); ion current, inhibitor, patch clamp; held at V0.5).
For `[3H]C([3H])([3H])c1cnccc1CN1C[C@@H](c2cc(F)c(F)c(F)c2)CC1=O`, the Bmax was 25.9 pmol/mg (Synaptic vesicle glycoprotein 2A (SV2A, Homo sapiens, UniProt Q7L0J3); radioligand binding, saturation binding; human Alzheimer disease, pooled frontal cortex P1 fraction).

A few entries again:
With `O=C1CCC(N2Cc3c(NCc4ccccc4)cccc3C2=O)C(=O)N1` (stereo not shown) the degradation was 60% (Zinc finger protein Aiolos (Homo sapiens, UniProt Q9UKT9); degrader, western blot; OPM-2; 10 µM, 24 h).
`CCNc1nc2c(c(=O)[nH]1)[n+](C)cn2[C@@H]1O[C@H](COP(=O)(O)OP(=O)(O)OP(=O)(O)OC[C@H]2O[C@@H](n3cnc4c(=O)[nH]c(N)nc43)[C@H](O)[C@@H]2O)[C@@H](O)[C@H]1O` — result for “initial hydrolysis rate”: 0.92 ± 0.12 µM/min (m7GpppX diphosphatase (DCPS, Homo sapiens, UniProt Q96C86); decapping, substrate, HPLC; concentration not given).
With `CCC(C)C(N)C(=O)OC(C)OC(=O)C1=CC(N=C(N)N)C(NC(C)=O)C(C(O)C(O)CO)O1` (mixture of isomers) the IC50 ratio was ~3 fold (Solute carrier family 15 member 1 (SLC15A1, Homo sapiens, UniProt P46059); inhibitor; Caco-2; added: [3H]Gly-Sar; relative to: Zan-L-Val).
`COc1ccc(C(SCC(N)C(=O)O)(c2ccccc2)c2ccccc2)cc1` (stereo not shown) has a binding stoichiometry of 0.7 ± 0.003 (Kinesin-like protein KIF11, motor domain (KIF11, Homo sapiens, UniProt P52732); ITC; concentration not given, 25 °C).
